Assay results gathered from unrelated publications.
Method: steady-state kinetics
B1: enzyme (Leishmania braziliensis, UniProt A4HPA0); chain MVQTKEIALEQLALTLTGDASWSSGPIYVVCDVGGTSARVGFSQASQHDRSGLHIIYVRFKVTKSDIRQLLEFFDEVLQHLKKNLPDHGASFLRRVASGAVSVPGPVTNGQLAGPFNNLKGIARLVDYPVELFPKGRSALLNDLEAGAYGVLALSNAGILSDYFKVMWKGTQWDALSEGKPAGSTIGRGRCMVVAPGTGVGSSLIHYVGVSDSYIVLALECGSLSMSWCANEDSKYVQALAGYMASKAHAKGLDSTVAPIWEAASNGAGLEFNYAYAKEGQKASAPLKSAPEVAKLAKSGSDTAAIAAVDRLYKNLIGLTAETTMQFLPLTCVLMGDNVVANSFYFEKPENVKRLQARLHEHAMERQFKFLSRTTFLRQVSSVNINLLGCLGFGSQLS
B2: enzyme (Azotobacter vinelandii, UniProt C1DN94); chain MSESPLRLDRLRDFVSALGELLDRHPDEESVLREGRSLLGELVRHDDWLPEEFAQPDPERYQQYLLHADSRQRFSVVSFVWGPGQTTPVHDHRVWGLIGMLRGAEDAQSFELGAEGLRPIGDPVRLSPGQVEAVSPRIGDIHRVFNASPDQPSISIHVYGANIGAVRRAVYLPDGSEKPFISGYSNQFLPNIWDQSKESARP
B3: enzyme (Bacillus licheniformis, UniProt Q65NC0); chain KSSVVSAWDMLWRSHREAKRLLLFAMPVRAGKDAGLKINSEQTMKEEKPPSYKTPQKIGLLLGPALFFAVLLFFFPEGLSYEGRMVLATTLWVAVWWITEAVPIPAASLLPIVLLPLTGALEGAAVTSSYGDPIVFLFLGGFLIALAMERWNLHKRIALNIISVVGTSTSRIVLGFMAATGFLSMWVSNTAAVMMMLPIGTAIIHQVSAVIKSERKDLAAEEAKFSKALIFSIGYAGTIGGLGTLIGTPPNIILAANIKKLYGVEVSFGGWMAFAVPVVVILLVAVWLYLTKVAHPIKMKELPGGKELILEEKRKLGKMSFEETMVLLVFGFAAFMWVTRTFLWDDKIPGIDDTMIAIFAASLLFLIPSLNKGGRVLDWSVSKDLPWGILLLFGGGLALATGFKETGLAEWIGGRLTVLDGFNFVVIVIISTALVLFLTEITSNTATATMILPVLASLALALNVHPYALMVPAAMAANCAFMLPVGTPPNAIIFASGKLKISEMVRTGFVINIFTLILIVGAVFYILPHLWGVDLTVFPDNLKSN
B4: enzyme S252E (Schizosaccharomyces pombe, UniProt P78804); chain MSTPYEPEFQQAYKEIVGSIESSKLFEVHPELKRVLPIISIPERVLEFRVTWEDDKGNCRVNTGYRVQFNSALGPYKGGLRFHPSVNLSILKFLGFEQIFKNALTGLPMGGGKGGSDFDPKGKSDNEIRRFSQAFMRQLFRYIGPQTDVPAGDIGVTGFVVMHMFGEYKRLRNEYSGVVTGKHMLTGGSNIRPEATGYGVVYYVKHMIEHRTKGAETLKGKRVAISGSGNVAQYAALKCIQEGAIVKSISDEKGVLIAKTAEGLVPEEIHEIMALKEKRASIADSASLCKKHHYIAGARPWTNVGEIDIALPCATQNEVSGEEAAALIKQGCRYVAEGSNMGSSAEAVEVFEKSRASGEGCWLAPGKAANAGGVAVSGLEMAQNAQFSTWTHAEVDAKLAGIMQNIFEQSTDVASKYCDSGSNNIPSLVDGANIAGFLKVATAMQAVGDWW
B5: UGT2B4 (Homo sapiens, UniProt P06133); chain GKVLVWPTEFSHWMNIKTILDELVQRGHEVTVLASSASISFDPNSPSTLKFEVYPVSLTKTEFEDIIKQLVKRWAELPKDTFWSYFSQVQEIMWTFNDILRKFCKDIVSNKKLMKKLQESRFDVVLADAVFPFGELLAELLKIPFVYSLRFSPGYAIEKHSGGLLFPPSYVPVVMSELSDQMTFIERVKNMIYVLYFEFWFQIFDMKKWDQFYSEVLGRPTTLSETMAKADIWLIRNYWDFQFPHPLLPNVEFVGGLHCKPAKPLPKEMEEFVQSSGENGVVVFSLGSMVSNTSEERANVIASALAKIPQKVLWRFDGNKPDTLGLNTRLYKWIPQNDLLGHPKTRAFITHGGANGIYEAIYHGIPMVGVPLFADQPDNIAHMKAKGAAVSLDFHTMSSTDLLNALKTVINDPLYKENAMKLSRIHHDQPVKPLDRAVFWIEFVMRHKGAKHLRVAAHDLTWFQYHSLDVTGFLLACVATVIFIITKCLFCVWKFVRTGKKGKRD
B6: enzyme C76S (UniProt A0A0P0CH59); chain MRIALFSDIHANLPALEAVLANMETQQLDAIYCLGDLVGYAPWPNEVVAEIRKRRIPTIAGNYDEGVGLWSPNCGSAYKTDTEKDLGQQSIDFTNNVVTEETRKYLRMLPRQLRLTFMDGSKEENKIELLLVHGSPRKINEYLFEDRPEKSFLKMMEEANADLLFFGHTHKPYHRAMPYEHEGQTRYRHAINIGSVGKPKDGDPRTGYVVVELTPESSLTQKDSIKVEFIRVPYDVETAAQAVEASPLPNEFAQMLRTA
B7: PYCR2 R119C (Homo sapiens, UniProt Q96C36); chain MSVGFIGAGQLAYALARGFTAAGILSAHKIIASSPEMNLPTVSALRKMGVNLTRSNKETVKHSDVLFLAVKPHIIPFILDEIGADVQARHIVVSCAAGVTISSVEKKLMAFQPAPKVICCMTNTPVVVQEGATVYATGTHALVEDGQLLEQLMSSVGFCTEVEEDLIDAVTGLSGSGPAYAFMALDALADGGVKMGLPRRLAIQLGAQALLGAAKMLLDSEQHPCQLKDNVCSPGGATIHALHFLESGGFRSLLINAVEASCIRTRELQSMADQEKISPAALKKTLLDRVKLESPTVSTLTPSSPGKLLTRSLALGGKKD
B8: aspC A106G/A17N/A218G/A278L/A281T/A8Q/D18E/F210I/F212I/F350Y/G15S/G249S/I187A/I279A/I29V/I33V/I341V/I5L/I68L/I71L/L46M/M321L/M380L/N285S/N30D/N64T/S129T/S135A/S273G/S351L/T100S/V125I/V136I/V375I/Y244C (Escherichia coli, UniProt P00509); chain MFENLTAQPADPILSLNELFRADERPGKVDLGVGVYKDETGKTPVMTSVKKAEQYLLENETTKTYLGLDGLPEFGRCTQELLFGKGSALINDKRARTAQSPGGTGGLRVAADFLAKNTSVKRVWISNPTWPNHKAIFNSAGLEVREYAYYDAENHTLDFDALINSLNEAQAGDVVLFHGCCHNPTGADPTLEQWQTLAQLSVEKGWLPLIDIAYQGFGRGLEEDAEGLRAFAAMHKELIVASSCSKNFSLYNERVGACTLVAADSETVDRAFGQMKALARTNYSSPPAHGASVVATILSNDALRAIWEQELTDMRQRIQRLRQLFVNTLQEKGANRDFSFVIKQNGMFSYLGLTKEQVLRLREEFGVYAVASGRINVAGLTPDNMAPLCEAIVAVL
B9: ftsZ (Escherichia coli, UniProt P0A9A6); chain MFEPMELTNDAVIKVIGVGGGGGNAVEHMVRERIEGVEFFAVNTDAQALRKTAVGQTIQIGSGITKGLGAGANPEVGRNAADEDRDALRAALEGADMVFIAAGMGGGTGTGAAPVVAEVAKDLGILTVAVVTKPFNFEGKKRMAFAEQGITELSKHVDSLITIPNDKLLKVLGRGISLLDAFGAANDVLKGAVQGIAELITRPGLMNVDFADVRTVMSEMGYAMMGSGVASGEDRAEEAAEMAISSPLLEDIDLSGARGVLVNITAGFDLRLDEFETVGNTIRAFASDNATVVIGTSLDPDMNDELRVTVVATGIGMDKRPEITLVTNKQVQQPVMDRYQQHGMAPLTQEQKPVAKVVNDNAPQTAKEPDYLDIPAFLRKQAD
Sequence of UniProt P00723 (whole entry, looked up): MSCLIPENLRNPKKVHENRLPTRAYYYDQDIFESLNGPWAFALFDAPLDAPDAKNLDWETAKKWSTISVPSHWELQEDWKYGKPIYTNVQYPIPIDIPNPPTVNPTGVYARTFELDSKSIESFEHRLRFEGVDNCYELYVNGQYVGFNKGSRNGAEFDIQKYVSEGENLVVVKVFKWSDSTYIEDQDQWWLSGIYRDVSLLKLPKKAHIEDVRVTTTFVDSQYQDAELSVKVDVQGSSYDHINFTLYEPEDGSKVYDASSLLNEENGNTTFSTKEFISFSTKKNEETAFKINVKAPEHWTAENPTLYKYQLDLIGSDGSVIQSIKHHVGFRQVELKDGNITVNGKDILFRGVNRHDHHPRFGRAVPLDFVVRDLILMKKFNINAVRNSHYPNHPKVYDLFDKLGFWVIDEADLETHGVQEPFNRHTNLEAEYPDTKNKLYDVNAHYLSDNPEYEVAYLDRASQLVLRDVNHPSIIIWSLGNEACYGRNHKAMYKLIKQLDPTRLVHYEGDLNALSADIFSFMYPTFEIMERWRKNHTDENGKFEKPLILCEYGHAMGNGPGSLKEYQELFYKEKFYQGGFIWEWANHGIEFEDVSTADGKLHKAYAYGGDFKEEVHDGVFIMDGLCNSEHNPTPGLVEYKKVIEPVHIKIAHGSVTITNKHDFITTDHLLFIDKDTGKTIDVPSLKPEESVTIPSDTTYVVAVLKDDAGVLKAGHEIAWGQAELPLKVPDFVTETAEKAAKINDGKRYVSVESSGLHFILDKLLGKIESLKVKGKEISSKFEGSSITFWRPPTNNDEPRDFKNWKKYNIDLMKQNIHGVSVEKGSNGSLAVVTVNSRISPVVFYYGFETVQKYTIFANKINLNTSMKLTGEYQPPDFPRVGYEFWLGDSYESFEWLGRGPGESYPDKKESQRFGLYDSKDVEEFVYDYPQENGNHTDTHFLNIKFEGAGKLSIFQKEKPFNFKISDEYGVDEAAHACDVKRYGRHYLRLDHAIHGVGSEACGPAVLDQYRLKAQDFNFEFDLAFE

With `B1 (enzyme)` the Km was 338 µM (Nc1ncnc2c1ncn2[C@@H]1O[C@H](COP(=O)(O)OP(=O)(O)OP(=O)(O)O)[C@@H](O)[C@H]1O; with: Mg2+).
`enzyme (UniProt A0A4R3LQ44)` has a Km of 3800 µM (O=C(O)[C@H](O)[C@@H](O)[C@@H](O)[C@H](O)CO; pH 7.5, 50 °C).
For `enzyme (Pseudomonas poae, UniProt A0A2S9EJ63)`, the Km was 2500 µM (O=Cc1ccc(C=O)o1; pH 8, 30 °C, with: 2 µM FAD).
The Km of `B2 (enzyme)` is reported as 26000 µM (NCCS; pH 8, 25 °C, with: O2).
For `B3 (enzyme)`, the Km was 7.1 µM (O=C(O)C[C@H](O)C(=O)O; pH 7, room temperature, apparent, not purified, with: Na+ 5 mM).
The Km of `B4 (enzyme S252E)` is reported as 220 µM (NC(=O)c1ccc[n+]([C@@H]2O[C@H](COP(=O)(O)OP(=O)(O)OC[C@H]3O[C@@H](n4cnc5c(N)ncnc54)[C@H](OP(=O)(O)O)[C@@H]3O)[C@@H](O)[C@H]2O)c1; pH 7, 30 °C, apparent).
With `B5 (UGT2B4)` the Km was 10.7 µM (CC(C)=CCc1cc2c(cc1O)O[C@H](c1ccc(O)cc1)CC2=O; pH 7.4).
For `enzyme (Homo sapiens, UniProt Q08623)`, the Km was 2.1 µM (O=c1[nH]cc([C@@H]2O[C@H](COP(=O)(O)O)[C@@H](O)[C@H]2O)c(=O)[nH]1; pH 7, 25 °C).
The Km of `B6 (enzyme C76S)` is reported as 13700 µM (O=[N+]([O-])c1ccc(OP(=O)(O)O)cc1; pH 7, 37 °C, with: Ni2+ 0.25 mM).
`B7 (PYCR2 R119C)` has a Km of 537 µM (NC(=O)C1=CN([C@@H]2O[C@H](COP(=O)(O)OP(=O)(O)OC[C@H]3O[C@@H](n4cnc5c(N)ncnc54)[C@H](OP(=O)(O)O)[C@@H]3O)[C@@H](O)[C@H]2O)C=CC1; pH 7.5, 37 °C, apparent, cofactor varied, with: DL-P5C 5000 µM).
`LAC4 (Kluyveromyces lactis, UniProt P00723)` has a Km of 1050 µM (O=[N+]([O-])c1ccccc1O[C@@H]1O[C@H](CO)[C@H](O)[C@H](O)[C@H]1O; pH 6.5, 30 °C).
With `B8` the Km was 700 µM (N[C@@H](Cc1ccc(O)cc1)C(=O)O; pH 7.5, 25 °C, with: PMP 20 µM).
With `B9 (ftsZ)` the Km was 34 µM (Nc1nc2c(ncn2[C@@H]2O[C@H](COP(=O)(O)OP(=O)(O)OP(=O)(O)O)[C@@H](O)[C@H]2O)c(=O)[nH]1; pH 6.5, 30 °C, with: MgCl2 5 mM).
For `HNL C81L/E79H/G176S/H103V/K236M/N104A/S105A/T11G/V106F (Hevea brasiliensis)`, the Km was 350 µM (CC(=O)Oc1ccc([N+](=O)[O-])cc1; pH 7.2, 22 °C).
For `gdh E198C (Bacillus subtilis)`, the Km was 1320 µM (NC(=O)c1ccc[n+]([C@@H]2O[C@H](COP(=O)(O)OP(=O)(O)OC[C@H]3O[C@@H](n4cnc5c(N)ncnc54)[C@H](O)[C@@H]3O)[C@@H](O)[C@H]2O)c1; pH 8, 45 °C).

Excerpt of the above:
With `B5 (UGT2B4)` the Km was 10.7 µM (CC(C)=CCc1cc2c(cc1O)O[C@H](c1ccc(O)cc1)CC2=O; pH 7.4).
For `HNL C81L/E79H/G176S/H103V/K236M/N104A/S105A/T11G/V106F (Hevea brasiliensis)`, the Km was 350 µM (CC(=O)Oc1ccc([N+](=O)[O-])cc1; pH 7.2, 22 °C).
